Measured values collected from several papers.
± marks the error that the study gave. ≈ marks a conversion by molar mass, not a printed value.

SMILES	organism	assay	test system	setting	how to read	measurement	value
CN(C)c1cc(CNCC(=O)C(C)(C)C)c(O)c2c1C[C@H]1C[C@H]3[C@H](N(C)C)C(O)=C(C(N)=O)C(=O)[C@@]3(O)C(O)=C1C2=O	Streptococcus pneumoniae	microbial growth, broth dilution	–	–	–	MIC	0.125 µg/mL (≈ 0.214 µM)
CC[C@H](C)[C@H](NC(=O)[C@H](CCCCN)NC(=O)[C@H](CC(N)=O)NC(=O)[C@H](Cc1c[nH]c2ccccc12)NC(=O)[C@H](Cc1ccccc1)NC(=O)[C@H](CCCCN)NC(=O)[C@H](CCCNC(=N)N)NC(=O)[C@H](CC(C)C)NC(=O)[C@H](Cc1c[nH]c2ccccc12)NC(=O)[C@H](CCCCN)NC(=O)[C@H](CCCNC(=N)N)NC(=O)[C@H](CC(C)C)NC(=O)CNC(C)=O)C(=O)N[C@@H](CCCCN)C(=O)N[C@@H](CCCNC(=N)N)C(N)=O	all bacteria tested	–	–	–	–	geometric mean MIC	3.94 µM
COc1ccc(-n2nc3c(=O)n(-c4cccc(C(=O)NC(C)C)c4)nc(C)c3c2C)cc1	Zika virus	–	Vero, MR766	–	reference: CC50 over EC50	selectivity index	2.9
CCCCCc1ccc2c(c1O)C(c1ccc(OC)c(OC)c1)OC2=O (stereo not shown)	Naegleria fowleri	parasite growth, resazurin	ATCC30808	48 h	–	IC90	93.5 µM
CN[C@H](CC(C)C)C(=O)N[C@H]1C(=O)N[C@@H](CC(N)=O)C(=O)N[C@H]2C(=O)N[C@H]3C(=O)N[C@H](C(=O)N[C@H](C(=O)O)c4cc(O)cc(O)c4-c4cc3ccc4O)[C@H](O)c3ccc(c(Cl)c3)Oc3cc2cc(c3O[C@@H]2O[C@H](CO)[C@@H](O)[C@H](O)[C@H]2O[C@H]2C[C@](C)(NCc3ccc(C(=O)OCCCCCCN(Cc4ccccn4)Cc4ccccn4)cc3)[C@H](O)[C@H](C)O2)Oc2ccc(cc2Cl)[C@H]1O	Staphylococcus aureus	–	MRSA	together with: N,N'-diacetyl-Lys-D-Ala-D-Ala 500 µM	reference: with over without antagonist	MIC ratio	2 fold
CNCc1cc(N(C)C)c2c(c1O)C(=O)C1=C(O)[C@]3(O)C(=O)C(C(N)=O)=C(O)[C@@H](N(C)C)[C@@H]3C[C@@H]1C2	Streptococcus pneumoniae	–	ATCC 700905, Tet M ribosome protection	–	–	MIC	2 µg/mL (≈ 4 µM)
CC[C@@H](C)[C@@H](NC(=O)[C@@H](C)N)C(=O)N[C@H](CCCCN)C(=O)N[C@@H](C(=O)N[C@H](CCCNC(=N)N)C(=O)N[C@H](CCCCN)C(=O)N[C@H](CC(C)C)C(=O)N[C@H](Cc1ccccc1)C(=O)N[C@H](CCCCN)C(=O)N[C@H](CCCCN)C(=O)N[C@H](CC(C)C)C(=O)N[C@H](CC(C)C)C(=O)N[C@H](CCCNC(=N)N)C(N)=O)[C@H](C)CC	Escherichia coli	broth microdilution checkerboard, refers to: levofloxacin	ATCC 25922, LB medium	concentration not given	–	MIC of antibiotic	0.003 µg/mL
COc1cc(/C=C/c2cc(/C=C/c3ccc(O)c(OC)c3)nc(N)n2)ccc1O	Spodoptera frugiperda	cell growth or viability, MTT	Sf9	100 µM, 72 h	–	inhibition	90%
CN(C)c1cc(CN2CCCCC2)c(O)c2c1C[C@H]1C[C@H]3[C@H](N(C)C)C(O)=C(C(N)=O)C(=O)[C@@]3(O)C(O)=C1C2=O	Streptococcus pneumoniae	–	157E	50% mouse serum	–	MIC	0.125 µg/mL (≈ 0.225 µM)
C=C(C)[C@@H]1CC[C@]2(C(N)=O)CC[C@]3(C)[C@H](CC[C@@H]4[C@@]5(C)CCCNC(C)(C)[C@@H]5CC[C@]43C)[C@@H]12	Human cytomegalovirus	cytopathic effect	HFF, AD169	–	–	EC90	> 1.2 µM
CCCCn1ccc([C@H](C)[C@](O)(Cn2cnnn2)c2ccc(F)cc2F)n1	Candida tropicalis	growth, broth microdilution	2718	24 h, 30 °C, ≥50% inhibition	–	MIC	0.0313 µg/mL (≈ 0.0832 µM)
CC1(C)CC[C@]23CC[C@]4(C)[C@H](CC[C@@H]5[C@@]6(C)CCCNC(C)(C)[C@@H]6CC[C@]54C)[C@H]2[C@H]1OC3	Human cytomegalovirus	cytopathic effect	HFF, AD169	–	–	EC90	> 30 µM
Cc1ccc2nc(-c3ccccc3)c(CNc3cccc(C(F)(F)F)c3)n2c1	Trypanosoma cruzi	parasite growth	Tulahuen beta-galactosidase	concentration not given	–	activity	inactive
Cc1ccccc1-c1cn([C@@H]2O[C@H](CO)[C@@H](O)[C@H]2O)c2ncnc(N)c12	Trichomonas vaginalis	resorufin	G3, metronidazole-sensitive	24 h + 2 h, 2% O2	–	EC50	9 ± 0.31 µM
CNCc1ccc2c(c1)N(C(=O)OCc1ccccc1)[C@H](CNC(=N)N)[C@H]2NC(=O)C(=O)Nc1ccc(Cl)c(F)c1	amphotropic murine leukemia virus	viral infection	Cf2Th-CD4/CCR5	–	–	IC50	> 300 µM
Cc1ccc2nc(-c3ccc(F)c(F)c3)c(CN3CCC(c4ccccc4)CC3)n2c1	Trypanosoma cruzi	–	3T3 host cells, Tulahuen beta-galactosidase	6 days	–	EC50	1.1 µM
